Results of several laboratories.
Numbered parts are unrelated; each lists some results of a single study.

Set 1 — technique: protein-binding microarray; molecule type: double-stranded DNA, one strand shown; sample: in vitro; concentration: 940 nM top; setting: 60-bp whole probe; with: salmon DNA 0.4 mg/ml; reference: random background probes; direction: higher = stronger binding; all sequences stand within: GCCTAGCAC … GTCTTGATTCGCTTGACGCTGCTG
Target: Interferon regulatory factor 5, full length, phosphomimetic (IRF5, Homo sapiens, UniProt Q13568-2, residues 1-514, S451D/S453D/S456D/S462D)
`GACGGTTTCGTCACTGGGGACGTGCTA`: “fitted relative affinity” 5.23 z-score.
Under “fitted relative affinity”, `GACGGTCTCGGTTTCGGGTCGTGCTAG` is recorded as 8.65 z-score.
Under “fitted relative affinity”, `TTAGGTTTCATTCTCCTTTAGTGCTAG` is recorded as 6.17 z-score.
`GCCGGTTTCGACTATCGGGACGTGCTA`: “fitted relative affinity” 9.19 z-score.
`CTATATTAGGGAAGTGTGTTGTGCTAG`: “fitted relative affinity” -0.0469 z-score.
For `TTAGATATTAAACTGATAGGGTGCTAG`, “fitted relative affinity” read -0.263 z-score.
`TCCTTTATGTACTCTCTACATGTGCTA` — result for “fitted relative affinity”: 0.947 z-score.
For `TCATCCCTAATTCTGATACTGTGCTAG`, “fitted relative affinity” read 0.504 z-score.

Set 2 — technique: protein-binding microarray; molecule type: double-stranded DNA, one strand shown; sample: in vitro; concentration: not given; direction: higher = stronger binding
Target: Protein max, full length (MAX, Homo sapiens, UniProt P61244-2, residues 1-151)
Setting: k-mer, scored over probes, only values ≥0.25
With `CGGACACG` the E-score was 0.357.
With `AGCACGCC` the E-score was 0.375.
The E-score of `CACGGGGC` is reported as 0.369.
For `CACGCACG`, the E-score was 0.403.
`ATGCTTAA` gave an E-score of 0.301.
The E-score of `ACCTCGCG` is reported as 0.284.
With `CGTGCCTC` the E-score was 0.356.
`CGGCACGC` has an E-score of 0.382.

Set 3 — read-out: binding; technique: phage display NGS; molecule type: peptide; concentration: concentration not given; setting: panning round 2; reference: input library
Target: UDP-N-acetylglucosamine--peptide N-acetylglucosaminyltransferase 110 kDa subunit (OGT, Homo sapiens, UniProt O15294)
Chain of UniProt O15294 (whole entry, looked up): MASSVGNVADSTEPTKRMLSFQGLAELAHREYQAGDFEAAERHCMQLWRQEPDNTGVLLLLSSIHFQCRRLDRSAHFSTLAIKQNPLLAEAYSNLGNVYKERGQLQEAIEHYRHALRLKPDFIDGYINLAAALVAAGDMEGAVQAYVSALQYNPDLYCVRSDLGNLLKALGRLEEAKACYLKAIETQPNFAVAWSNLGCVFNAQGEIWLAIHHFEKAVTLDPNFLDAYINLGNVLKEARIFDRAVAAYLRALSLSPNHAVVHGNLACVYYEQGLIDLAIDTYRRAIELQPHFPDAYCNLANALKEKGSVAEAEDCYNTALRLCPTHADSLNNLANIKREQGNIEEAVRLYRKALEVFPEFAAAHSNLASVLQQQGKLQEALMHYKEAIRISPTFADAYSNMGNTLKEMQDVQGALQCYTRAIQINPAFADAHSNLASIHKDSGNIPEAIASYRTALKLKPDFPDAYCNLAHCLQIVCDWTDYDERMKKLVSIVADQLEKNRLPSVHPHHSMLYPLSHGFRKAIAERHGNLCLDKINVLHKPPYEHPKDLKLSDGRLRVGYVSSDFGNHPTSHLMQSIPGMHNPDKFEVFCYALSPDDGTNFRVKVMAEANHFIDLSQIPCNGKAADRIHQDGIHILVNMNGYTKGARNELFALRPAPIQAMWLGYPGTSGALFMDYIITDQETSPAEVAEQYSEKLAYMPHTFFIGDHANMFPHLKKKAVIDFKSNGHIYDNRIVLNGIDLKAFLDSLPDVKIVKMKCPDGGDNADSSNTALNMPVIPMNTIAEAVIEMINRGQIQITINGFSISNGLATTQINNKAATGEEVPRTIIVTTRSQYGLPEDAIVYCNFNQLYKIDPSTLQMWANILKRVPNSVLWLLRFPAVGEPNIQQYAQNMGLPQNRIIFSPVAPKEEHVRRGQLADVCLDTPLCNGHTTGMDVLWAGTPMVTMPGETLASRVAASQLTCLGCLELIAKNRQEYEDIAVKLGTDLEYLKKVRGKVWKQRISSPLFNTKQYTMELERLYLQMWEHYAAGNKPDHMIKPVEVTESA
`TNMYRYPTHAHFQIK` — result for “enrichment fold change”: 4.27.
`HWHLHDSLYHQVDIH`: “enrichment fold change” 8.98.
Under “enrichment fold change”, `EHYHMHDIMKNQHSH` is recorded as 9.1.
Under “enrichment fold change”, `YTPLRHPMHEHDHNH` is recorded as 9.86.
`HQIPVLLHHSHTRNI` — result for “enrichment fold change”: 6.15.
For `HSWDHIWHTTYDNDK`, “enrichment fold change” read 5.19.
`DSGMHWMHRHMHGWE` — result for “enrichment fold change”: 9.09.
`YMPQYQIMAQDKKV` — result for “enrichment fold change”: 2.91.
`SSWPWTMHMHQPSYH`: “enrichment fold change” 5.04.
`QSDFLPKYQLDLFSY`: “enrichment fold change” 13.
`QSMGFSYPPAYLIKY` — result for “enrichment fold change”: 4.79.
`QDFKPMYQIKIRSHA` — result for “enrichment fold change”: 136.
`HPVYHQVDTIQPHHH` — result for “enrichment fold change”: 4.88.
Under “enrichment fold change”, `HVPRQHYAMYPHQYR` is recorded as 5.4.
For `KFMPVYQIIAEMGAF`, “enrichment fold change” read 9.38.
For `VRQHHHQNAGWHMYH`, “enrichment fold change” read 6.24.
For `HQEHKHEGHWAIFD`, “enrichment fold change” read 4.74.
`VMELQFLPHYQIEAF`: “enrichment fold change” 9.9.
`THWSHYDTEHVDYTH`: “enrichment fold change” 3.19.
For `WVLVPPFYQIVPSNR`, “enrichment fold change” read 124.
For `INPPWHHVHRHHSWA`, “enrichment fold change” read 4.81.
`ANFMPYYEIMVSDP`: “enrichment fold change” 3.06.
`NLHHYAKWLASIDH` — result for “enrichment fold change”: 2.79.
`SYVHHPPHWWDKHVS`: “enrichment fold change” 6.13.
For `MWSPTVPPKYIIKYK`, “enrichment fold change” read 7.84.

Set 4 — technique: protein-binding microarray; molecule type: hairpin DNA; sample: in vitro; concentration: not given; reference: not given; direction: higher = stronger binding
Target: Microphthalmia-associated transcription factor, full length (MITF, Homo sapiens, UniProt O75030-10, residues 1-413)
Setting: whole hairpin DNA, median over replicate spots
With `CACTGAGCACGTGATTTTGGTCCTCCAAAATCACGTGCTCAGTGACACTC (5mC at 40)` the median fluorescence was 27200 a.u.
With `CACTTAGCACGTGGTTTTGGTCCTCCAAAACCACGTGCTAAGTGACACTC (5mC at 31)` the median fluorescence was 24800 a.u.
The median fluorescence of `GAGGCCCGGCACGTGCTGCCTCCTGGCAGCACGTGCCGGGCCTCACACTC (5mC at 7)` is reported as 22700 a.u.
`CACTTAGCCGGTGATTTTGGTCCTCCAAAATCACCGGCTAAGTGACACTC (5mC at 9 35)` has a median fluorescence of 4300 a.u.
For `GAGGCCTAGCTCGTGCTGCCTCCTGGCAGCACGAGCTAGGCCTCACACTC`, the median fluorescence was 9610 a.u.
The median fluorescence of `GAGGCCTAGCACGTGTTGCCTCCTGGCAACACGTGCTAGGCCTCACACTC` is reported as 19300 a.u.
With `GAGGCCTAGCACGCGCTGCCTCCTGGCAGCGCGTGCTAGGCCTCACACTC (5mC at 14)` the median fluorescence was 14100 a.u.
With `CACTTAGCGCGTGATTTTGGTCCTCCAAAATCACGCGCTAAGTGACACTC` the median fluorescence was 19800 a.u.

Further values, each from its own experiment
With CNC(=O)c1ccc(-c2cnn3ccc(C(=O)N(C)c4ccc(Cl)c(C(=O)OC)c4)cc23)cc1 the Cmax was 38.7 ng/mL (beagle dog, plasma; oral, 50 mg/kg/day, multiple doses).
